Experimental data from different studies.
A part holds a random share of what one study measured. Changes are numbered by the printed parent chain.

Block 1 — method: protein binding microarray; form: double-stranded DNA, one strand shown; sample: in vitro; tested at: not given; reference: not given; reading: higher = stronger binding
Target: Histone acetyltransferase KAT6A, winged helix 2, GST fusion (KAT6A, Homo sapiens, UniProt Q92794, residues 85-181)
Setting: 8-mer, flanks averaged, mean of 2 arrays, mostly near background
Target sequence (chain): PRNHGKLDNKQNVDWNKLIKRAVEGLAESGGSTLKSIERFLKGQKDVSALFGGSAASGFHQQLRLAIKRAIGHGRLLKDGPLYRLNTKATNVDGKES
| Oligonucleotide | E-score |
| --- | --- |
| CCCCCGGA | 0.0737 |
| AATACCTA | -0.088 |
| CAGCCAAA | 0.127 |
| AGACTTAG | -0.183 |
| AATCTGAG | -0.0411 |
| AAGCACCA | -0.171 |
| GAATCGTA | -0.169 |
| AACTGCAT | 0.124 |
| CAGATTCG | 0.0279 |
| AAGGAATA | -0.0561 |
| ATTTTGAG | 0.208 |
| CGGCGCAA | 0.0823 |

Block 2 — target: CCNF, cyclin fold, Cln2 fusion (human); method: yeast growth competition, sequencing; sample: yeast; setting: strong parent motif; reference: not given; reading: higher = stronger binding
Starting sequence: SCAPER docking peptide (human); SNARRSLNFGGST
| Substitution | normalised enrichment score |
| --- | --- |
| L7M | 0.907 |
| N2T | 7.06 |
| S1L | 8.05 |
| S6F | 8.33 |
| R5N | -0.227 |
| S12N | 7.14 |
| G10M | 6.65 |
| R4V | 5.48 |

Block 3 — method: Sort-seq; refers to: YFP reporter; sample: E. coli; setting: PhoQ-PhoP variant library; with: 10 µM Mg2+; reference: high Mg2+ state; reading: higher = stronger signaling
Molecule: PhoQ, residues 284 288 289 292 302 303 SSCLAV
| target | fold induction |
| --- | --- |
| PhoP, residues 12 14 15 18 19 LFHKL (Escherichia coli, UniProt P23836) | 3.25 |
| PhoP, residues 12 14 15 18 19 QQAYL (Escherichia coli, UniProt P23836) | 14.8 |
| PhoP, residues 12 14 15 18 19 GMGLL (Escherichia coli, UniProt P23836) | 5.21 |

Block 4 — method: protein-binding microarray; form: double-stranded DNA, one strand shown; sample: in vitro; tested at: 250 nM; setting: 60-bp whole probe; with: salmon DNA 0.4 mg/ml; reference: random background probes; reading: higher = stronger binding; all sequences stand within: GCCTAGCAC … GTCTTGATTCGCTTGACGCTGCTG
Target: Interferon regulatory factor 5, full length, phosphomimetic (IRF5, Homo sapiens, UniProt Q13568-2, residues 1-514, K96S/S451D/S453D/S456D/S462D)
| Oligonucleotide | log fluorescence [z-score] |
| --- | --- |
| TCACAAATGCCCTCTCCAACTGTGCTA | -0.172 |
| AACGGTTTCCTTCTCCTGACGTGCTAG | 1.19 |
| TTAGGACTGCTTCCCCTTTAGTGCTAG | -0.162 |
| AGACTTCTCCATTTTTCTAGGTGCTAG | 0.553 |
| TTAGATATCGGGTATCGAGTAGTGCTA | 3.64 |
| TTAGATTTCGGGTATCGATTTGTGCTA | 7.44 |
| TTTGGTCTCCTACTGCTTTAGTGCTAG | -0.0332 |
| TTAGGTCTCGTTATCCTTTAGTGCTAG | 0.276 |
| GACGGTTTCGGGTATCGTGACGTGCTA | 7.79 |
| TTAGGACTGGGTTTTGGTTAGTGCTAG | 0.553 |
| TTAGGACTGGGTCTCAGTTAGTGCTAG | -0.444 |
| GATGAACTGGGGTATCGAGACGTGCTA | 0.4 |
| TCATTTCTCTTTCCTTCACTGTGCTAG | 2.61 |
| TTAGGTTTCGGGACTGCGTTAGTGCTA | 6.21 |
| TTAGGGTTCGGACTGGGTTAGTGCTAG | -0.19 |
| GACGGTATCGACACTGGGAACGTGCTA | 2.04 |
| TTAGGTTCCCTTGTCCTTTAGTGCTAG | 0.0104 |
| TCATTTTCCTATGTCATACTGTGCTAG | 1.49 |

For quick reference, copied from above (block 3):
| target | fold induction |
| --- | --- |
| PhoP, residues 12 14 15 18 19 GMGLL (Escherichia coli, UniProt P23836) | 5.21 |
| PhoP, residues 12 14 15 18 19 LFHKL (Escherichia coli, UniProt P23836) | 3.25 |
| PhoP, residues 12 14 15 18 19 QQAYL (Escherichia coli, UniProt P23836) | 14.8 |
